{"data": "Results from different studies", "note": "Each line is one published result; not all experiments were run side by side. ± gives the spread as reported."}
{"SMILES": "S=C(NCCCc1c[nH]cn1)NCCCN(Cc1ccc(Cl)c(Cl)c1)c1ccc(Br)cn1", "test system": "male C57BL/6 mouse, plasma", "setting": "intraperitoneal, 30 mg/kg, 4 h", "measurement": "concentration", "result": "2390 ng/mL"}
{"SMILES": "CN(C)CCCN1c2ccccc2CCc2ccccc21", "assay": "mitochondrial swelling", "test system": "BALB/cByJ female mouse liver mitochondria", "setting": "30 min, added: succinate + rotenone", "how to read": "relative to: CaCl2 maximal swelling", "measurement": "EC20", "result": "274 µM"}
{"SMILES": "CC(=O)N[C@@H](Cc1ccccc1)C(=O)N[C@H]1CCCNC(=O)[C@H](CCCNC(=N)N)NC(=O)[C@H](Cc2c[nH]c3ccccc23)NC(=O)[C@@H](CC2CCCCC2)NC(=O)[C@@H]2CCCN2C1=O", "test system": "C57BL/6J mice, plasma", "setting": "intraperitoneal, 1 mg/kg", "measurement": "elimination half-life", "result": "0.168 h"}
{"SMILES": "CN(C)C/C=C/C(=O)Nc1cc2c(Nc3ccc(F)c(Cl)c3)ncnc2cc1O[C@H]1CCOC1", "test system": "human, plasma", "setting": "oral, 20 mg once daily, day 27, geometric mean", "measurement": "Vz/F at steady state", "result": "3160 L"}
{"SMILES": "CCCCC1(CCCC)CN(c2ccccc2)c2cc(SC)c(OCC(=O)N[C@@H](C(=O)NCC(=O)O)c3ccccc3)cc2S(=O)(=O)C1", "test system": "human, plasma", "setting": "oral, 10 mg, before breakfast", "measurement": "AUC(0-t)", "result": "1.09 ng·h/mL"}
{"SMILES": "CNCc1ccc(-c2[nH]c3cc(F)cc4c3c2CCNC4=O)cc1", "test system": "human, plasma", "setting": "oral, 600 mg twice daily, steady state, median", "measurement": "half-life", "result": "10.9 h"}
{"SMILES": "Cc1c(O)cccc1C(=O)N[C@@H](CSc1ccccc1)[C@H](O)CN1C[C@H]2CCCC[C@H]2C[C@H]1C(=O)NC(C)(C)C", "assay": "cytochrome c release, ELISA", "test system": "BALB/cByJ female mouse liver mitochondria", "setting": "30 min", "how to read": "relative to: alamethicin maximal release", "measurement": "EC20", "result": "> 200 µM"}
{"SMILES": "COc1cccc(-c2ccc(NC(=O)C3=C(C(=O)O)CCC3)c(F)c2)c1", "test system": "male human, plasma", "setting": "oral, 10 mg, single dose, fed, healthy volunteers", "measurement": "Vd/F", "result": "9.02 L"}
{"SMILES": "O=c1[nH]c(=O)c(Cc2cccc(C(F)(F)F)c2)c([C@H]2CC[C@H](c3ccccc3)CC2)[nH]1", "test system": "human, plasma", "setting": "oral, 450 mg once daily, day 7, geometric mean", "measurement": "AUC(0-tau)", "result": "5600 ng·h/mL"}
{"SMILES": "COC(=O)c1ccc(O)cc1", "assay": "cytochrome c release, ELISA", "test system": "BALB/cByJ female mouse liver mitochondria", "setting": "30 min", "how to read": "relative to: alamethicin maximal release", "measurement": "EC20", "result": "> 200 µM"}
{"SMILES": "CNC(=O)c1ccc(-c2cnc3ncc(Cc4ccc5ncccc5c4)n3n2)cc1F", "test system": "human, mild hepatic impairment (Child-Pugh A), plasma", "setting": "oral, 200 mg single dose", "measurement": "Vz/F (geometric mean)", "result": "324 L"}
{"SMILES": "CCCCNC(=O)CCC(C(=O)[O-])N1CCN(CC(=O)[O-])CCN(CC(=O)[O-])CCN(CC(=O)[O-])CC1.[67Ga+3] (stereo not drawn)", "assay": "RP-TLC", "test system": "murine plasma", "setting": "3 h, 37 °C, 5% CO2", "measurement": "intact radiolabelled complex", "result": "96.1 ± 0.4%"}
{"SMILES": "Cn1cc(-c2ccc(S(=O)(=O)[C@@H]3C[C@@H](C(=O)NC4(C#N)CC4)N(C(=O)C4(C(F)(F)F)CC4)C3)c(C(F)(F)F)c2)cn1", "assay": "population PK model", "test system": "human, plasma", "setting": "oral, 1 and 3 mg, fasted and fed estimates", "measurement": "absorption rate constant ka", "result": "2.95 h⁻¹"}
{"SMILES": "CCCC[C@H](NC(C)=O)C(=O)N[C@H]1CCC(=O)NC[C@@H](C(=O)N[C@@H](Cc2c[nH]c3ccccc23)C(N)=O)NC(=O)[C@H](CCCNC(=N)N)NC(=O)[C@@H](Cc2ccccc2)NC(=O)[C@H](Cc2c[nH]cn2)NC1=O", "test system": "Sprague Dawley rats, female, plasma", "setting": "subcutaneous, 25.0 mg/kg daily, day 28", "measurement": "Cmax", "result": "1180 ng/mL"}
{"SMILES": "Cc1nc2cccc(OCC(C)(C)C(=O)NC(C)C)c2c(N)c1C(=O)O", "test system": "Sprague-Dawley rat both sexes, plasma", "setting": "dietary, 60 mg/kg/day, day 90", "measurement": "Tmax", "result": "4.5 h"}
{"note": "A few entries again:"}
{"SMILES": "CNC(=O)c1ccc(-c2cnc3ncc(Cc4ccc5ncccc5c4)n3n2)cc1F", "test system": "human, mild hepatic impairment (Child-Pugh A), plasma", "setting": "oral, 200 mg single dose", "measurement": "Vz/F (geometric mean)", "result": "324 L"}
{"SMILES": "CCCCNC(=O)CCC(C(=O)[O-])N1CCN(CC(=O)[O-])CCN(CC(=O)[O-])CCN(CC(=O)[O-])CC1.[67Ga+3] (stereo not drawn)", "assay": "RP-TLC", "test system": "murine plasma", "setting": "3 h, 37 °C, 5% CO2", "measurement": "intact radiolabelled complex", "result": "96.1 ± 0.4%"}
